Measured values pooled from the literature.
Each numbered part is a random draw from the data of one study; scales do not carry over between parts.

Block 1
Target: Histone acetyltransferase KAT6A, winged helix 1, GST fusion (KAT6A, Homo sapiens, UniProt Q92794, residues 1-85)
Method: protein binding microarray
Form: double-stranded DNA, one strand shown
Matrix: in vitro
Tested at: not given
Setting: 8-mer, flanks averaged, mean of 2 arrays, mostly near background
Baseline: not given
Direction: higher = stronger binding
Measurement: E-score
Target sequence (chain): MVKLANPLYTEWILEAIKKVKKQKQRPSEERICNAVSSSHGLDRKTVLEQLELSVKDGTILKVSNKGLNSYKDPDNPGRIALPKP
CGTGTGCC: 0.104
CTTTAAGA: -0.106
GAACGACC: -0.0927
AAGTATAG: -0.0334
GTCAGAAC: -0.0417
ATGCCACG: 0.00394
AACGGTCC: 0.127
ACCCGCCG: 0.463
ATTGCATC: -0.0959
CAAACAAC: -0.162
CGCATACA: 0.171
AGACTAGA: -0.219
ATCAGGAC: -0.113
AGACGGAT: 0.149
CATTTAGA: -0.138
ATTCTCGC: -0.14
GAAAAACC: -0.0264
CGGCAAGC: 0.36
GGAGGGCA: -0.0934
AAAGCACC: -0.102
AGGGAAAG: -0.164
AGCCTTAT: -0.173
TCTAGTCA: -0.142
CGTGTAGA: -0.0135
TGGCCAAA: -0.143

Block 2
Target: PABPC1L2, full length, GST fusion (mouse, UniProt A0ABA7IW68)
Method: RNAcompete
Form: RNA
Matrix: in vitro
Tested at: 20 nM
Setting: 7-mer, probes averaged, single round
Baseline: mean of 7-mers
Direction: higher = stronger binding
Measurement: 7-mer Z-score
Residues (chain): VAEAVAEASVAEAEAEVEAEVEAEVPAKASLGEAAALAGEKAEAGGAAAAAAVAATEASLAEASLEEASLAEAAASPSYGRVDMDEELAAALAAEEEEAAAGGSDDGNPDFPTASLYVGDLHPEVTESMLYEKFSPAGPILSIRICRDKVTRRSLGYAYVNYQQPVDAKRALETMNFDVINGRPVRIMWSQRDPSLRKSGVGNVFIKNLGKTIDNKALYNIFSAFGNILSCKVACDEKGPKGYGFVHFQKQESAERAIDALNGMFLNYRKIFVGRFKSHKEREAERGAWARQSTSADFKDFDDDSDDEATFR
GAAUCUA: -0.132
ACUGGAA: 0.329
AUACUCC: -0.135
UCCCUAG: -0.233
AUGGUAG: -0.0409
ACAGGCA: 0.394
CAAUGUU: -0.249
GAGCAAC: 0.12
UAGUCUG: -0.282
AAGACUC: -0.0192
GCGAUAA: 0.519
AUUGCAA: 0.0442
CAACUGC: -0.0264
GGGGGUC: 0.497
GGAAAUU: 0.0587
AAAUGCC: 0.996
AGACUCG: -0.416
UGUGUCC: -0.347
AUUAAAA: 2.56
ACUGUCA: -0.284
GUUGGGA: 0.206
GUUUGGA: -0.269
CAGCGUC: -0.175
AAUUACU: -0.0645
CGGAAGU: 0.1

Block 3
Target: Interferon regulatory factor 5, full length, phosphomimetic (IRF5, Homo sapiens, UniProt Q13568-2, residues 1-514, K96S/S451D/S453D/S456D/S462D)
Method: protein-binding microarray
Form: double-stranded DNA, one strand shown
Matrix: in vitro
Tested at: 250 nM
Setting: 60-bp whole probe
Added: salmon DNA 0.4 mg/ml
Baseline: random background probes
Direction: higher = stronger binding
Measurement: log fluorescence
Shared flanks, not repeated: GCCTAGCAC … GTCTTGATTCGCTTGACGCTGCTG
GACGGTTCCCGTTTCCTGACGTGCTAG: 0.268 z-score
TTAGGACTTCTACTGCTTTAGTGCTAG: 0.127 z-score
TCATTTTTTACTTCGGGACTGTGCTAG: 0.767 z-score
GACGGACTGGGTTTCGAGACGTGCTAG: 1.35 z-score
GACGATTTCGTGTTTCGAGACGTGCTA: 2.93 z-score
AGTATGAGTTGCCCTTTCCCGTGCTAG: -0.329 z-score
TTGGGACTGGACTTTCGGTTAGTGCTA: 8.66 z-score
TCATTTTTATTTATAAAACTGTGCTAG: 1.11 z-score
GACGATTTCGGCTATCGAGACGTGCTA: 4.15 z-score
TTAGGTATCGGTACTGGGTTAGTGCTA: 5.93 z-score
GACGGTTTCGACTATCGGTACGTGCTA: 8.42 z-score
ATATCTTATCCTATCAGTTTGTGCTAG: 1.16 z-score
TTAGGTTACGACTTTCGGTTAGTGCTA: 9.63 z-score
TCACCTTTTAATTTTTAACTGTGCTAG: 0.55 z-score
GACGGTATCGGAGTGGGGACGTGCTAG: 0.636 z-score
TCATGTAACTCCTATCCAACTGTGCTA: 0.462 z-score
TTAGGTTTCGACAATGGGTTAGTGCTA: 6.22 z-score
GACGGTTTCGGAACTGGGGACGTGCTA: 5.01 z-score
GACGATCTCTGTCTCGAGACGTGCTAG: -0.129 z-score

Block 4
Target: Sal-like protein 4, full length isoform B (SALL4, Homo sapiens, UniProt Q9UJQ4-2, residues 1-616)
Method: universal PBM
Form: double-stranded DNA, one strand shown
Matrix: in vitro
Tested at: not given
Setting: 8-mer, flanks averaged, mean of replicates
Direction: higher = stronger binding
Measurement: E-score
Construct (chain): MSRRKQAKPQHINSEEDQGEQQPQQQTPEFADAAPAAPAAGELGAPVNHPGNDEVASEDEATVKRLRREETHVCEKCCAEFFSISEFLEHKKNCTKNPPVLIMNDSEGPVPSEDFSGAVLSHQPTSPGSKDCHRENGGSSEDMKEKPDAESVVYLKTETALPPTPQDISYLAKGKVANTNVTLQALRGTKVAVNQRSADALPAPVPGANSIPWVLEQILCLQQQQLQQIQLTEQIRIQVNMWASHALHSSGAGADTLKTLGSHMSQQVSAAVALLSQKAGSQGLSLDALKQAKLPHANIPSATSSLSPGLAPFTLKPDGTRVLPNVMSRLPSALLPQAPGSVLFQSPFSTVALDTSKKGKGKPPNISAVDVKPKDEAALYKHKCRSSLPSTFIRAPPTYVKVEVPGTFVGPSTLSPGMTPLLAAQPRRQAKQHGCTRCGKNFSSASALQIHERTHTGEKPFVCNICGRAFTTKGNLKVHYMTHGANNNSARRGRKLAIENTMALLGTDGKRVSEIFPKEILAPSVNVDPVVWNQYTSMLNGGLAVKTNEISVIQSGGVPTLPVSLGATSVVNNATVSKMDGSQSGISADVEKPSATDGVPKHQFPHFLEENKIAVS
GTCCACCA: -0.182
CCTACCCC: -0.321
CGTCTAGA: -0.0617
AGGTGTGC: -0.114
CGCAATAG: -0.0272
CTTGGTGA: -0.16
GACTGAAC: -0.195
ACTCTACG: -0.096
AGCGTTGG: -0.165
CCCTTAAA: 0.175
GCGGACCC: -0.325
TATGGTGA: 0.0735
ACTTAAGT: 0.166
AACTCAGA: 0.0127
CGCCTTTC: -0.061
ATACTAAA: 0.269
AATTGGCG: 0.195
ATGGTTTC: 0.118
TCGTAACA: 0.172
CGATGGGA: -0.0423
GTTCTTAA: 0.0461
TATAAACA: 0.37
ATCGGCCA: -0.186
TGATAGCA: 0.128
AGCATGTG: 0.061

Block 5
Target: TATA-box-binding protein 1 (TBP1, Arabidopsis thaliana, UniProt P28147, residues 1-200, full length assumed)
Method: protein-binding microarray
Form: double-stranded DNA, one strand shown
Matrix: in vitro
Tested at: not given
Setting: k-mer, scored over probes, only values ≥0.25
Direction: higher = stronger binding
Measurement: E-score
Construct (chain): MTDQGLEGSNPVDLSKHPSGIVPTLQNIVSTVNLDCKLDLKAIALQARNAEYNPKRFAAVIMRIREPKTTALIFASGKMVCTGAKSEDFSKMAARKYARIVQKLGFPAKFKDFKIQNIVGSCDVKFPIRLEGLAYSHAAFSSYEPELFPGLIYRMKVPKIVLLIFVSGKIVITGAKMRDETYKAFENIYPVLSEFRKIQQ
CATATAG: 0.316
AATTATC: 0.334
TTATCAA: 0.331
ATAAGAT: 0.361
GAATTTA: 0.347
ATAAGAC: 0.274
TAAAGAA: 0.293
ATATCTG: 0.287
TATCCAA: 0.278
ATTAAGA: 0.263
TACCATA: 0.29
AAATAAA: 0.419
GCTTTAA: 0.283
AATAAAG: 0.381
ATATAGA: 0.406
CATATGA: 0.26
GAATATC: 0.253
CGCATAA: 0.271
TAAGATA: 0.314
ATAAAGC: 0.341
GTTTATA: 0.454

Block 6
Target: Prothrombin, mature alpha-thrombin (F2, Homo sapiens, UniProt P00734)
Method: aptamer microarray, sandwich
Form: DNA with 2'F-ANA
Matrix: in vitro
Tested at: 200 nM
Setting: whole 15-mer aptamer, many near background
Added: Cy3 exosite-II aptamer, 400 nM
Direction: higher = stronger binding
Measurement: mean fluorescence intensity
Sequence: GGTTGGTGTGGTTGG
2'F-ANA at 2 4 7 10 11 13 14 15: 62 a.u.
2'F-ANA at 1 4 6 7 8 11 12 13 15: 172 a.u.
2'F-ANA at 3 5 8 10 11 13 14 15: 55.1 a.u.
2'F-ANA at 3 4 5 7 10 12 14: 77.1 a.u.
2'F-ANA at 1 6 10 11 13: 65.5 a.u.
2'F-ANA at 1 3 5 6 7 8 13 14 15: 47.7 a.u.
2'F-ANA at 1 2 5 6 12 13 14 15: 98 a.u.
2'F-ANA at 1 2 3 4 7 9 12: 374 a.u.
2'F-ANA at 3 8 9 11: 1120 a.u.
2'F-ANA at 1 3 4 8 10 13 14 15: 52.2 a.u.
2'F-ANA at 2 4 7 9 12: 648 a.u.
2'F-ANA at 2 3 5 7 10 11 12 13 14 15: 54.6 a.u.
2'F-ANA at 2 5 9 10 13: 44.1 a.u.
2'F-ANA at 2 3 7 9 10 13 14 15: 296 a.u.
2'F-ANA at 1 2 3 5 7 8 12: 153 a.u.
2'F-ANA at 1 2 3 4 7 8 9 11 14 15: 60.8 a.u.
2'F-ANA at 3 4 5 10 13 14: 47.8 a.u.
2'F-ANA at 1 2 3 4 5 9 12 13 14 15: 44.7 a.u.
2'F-ANA at 1 4 7 8 12 13 15: 276 a.u.
2'F-ANA at 4 5 6 9 10 12 13 15: 230 a.u.
2'F-ANA at 1 2 4 7 8 10: 50.3 a.u.
